Experimental data from different studies.
Lines come from different studies, so protocols differ. ± marks the error that the study gave.
UCHL1: Ubiquitin carboxyl-terminal hydrolase isozyme L1 (UCHL1, Homo sapiens, UniProt P09936)
Sequence of UniProt P09936 (whole entry, looked up): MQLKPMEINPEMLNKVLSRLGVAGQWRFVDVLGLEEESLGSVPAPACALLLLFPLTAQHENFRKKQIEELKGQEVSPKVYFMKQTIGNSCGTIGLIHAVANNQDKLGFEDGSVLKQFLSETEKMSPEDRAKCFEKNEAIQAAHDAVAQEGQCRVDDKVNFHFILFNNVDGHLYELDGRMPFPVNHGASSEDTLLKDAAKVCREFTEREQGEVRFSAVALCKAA

With `CCOC(=O)CSc1nc(-c2ccc(Cl)cc2)c2c(NC(=O)c3ccccc3)nnc-2[nH]1` the cell growth was 94.2% (OVCAR-4; SRB; 10 µM, NCI60 single-dose screen; reference: untreated).
`CCCCN1CCN(c2ccc3[nH]c(-c4ccc5[nH]c(-c6ccc(OCC)c(OCC)c6)nc5c4)nc3c2)CC1` gave a growth percent of -77.5% (OVCAR-4; SRB; 10 µM, 48 h).
`N.N.O=C([O-])C1(C(=O)[O-])CCC1.[Pt+2]` gave an EC50 of 66.4 µM (OVCAR-4; cell viability).
`CCCCN1CCN(c2ccc3[nH]c(-c4ccc5[nH]c(-c6ccc(C(F)(F)F)cc6)nc5c4)nc3c2)CC1` has a growth percent of -84.2% (OVCAR-4; SRB; 10 µM, 48 h).
`Cc1cc(=O)[nH]n1-c1nc(-c2ccc(Cl)cc2)c2c(NC(=O)c3ccccc3)nnc-2[nH]1` has a cell growth of 105% (OVCAR-4; SRB; 10 µM, NCI60 single-dose screen; reference: untreated).
The log10 TGI of `S=C([S][Au-][P+](CCCCCC[P+]([Au-][S]C(=S)n1cccn1)(c1ccccc1)c1ccccc1)(c1ccccc1)c1ccccc1)n1cccn1` is reported as greater than -4 (OVCAR-4; cell growth, NCI-60 screen; ovarian cancer).
`O=C(Nc1nnc2n3c(=S)[nH][nH]c3nc(-c3ccc(Cl)cc3)c1-2)c1ccccc1` gave a cell growth of 96.8% (OVCAR-4; SRB; 10 µM, NCI60 single-dose screen; reference: untreated).
The TGI of `CCN(CC)c1ccc(C=NNC(=O)CSc2nc3ccccc3c(=O)n2Cc2ccc(S(N)(=O)=O)cc2)c(O)c1` is reported as greater than 100 µM (OVCAR-4; NCI five-dose screen).
For `CCCN1CCN(c2ccc3[nH]c(-c4ccc5[nH]c(-c6cc(OC)c(OC)c(OC)c6)nc5c4)nc3c2)CC1`, the growth percent was 89.9% (OVCAR-4; SRB; 10 µM, 48 h).
`CC(C)C[C@H](NC(=O)C[C@H](O)[C@H](CC(C)C)NC(=O)[C@H](Cc1c[nH]cn1)NC(=O)CNC(=O)[C@@H](NC(=O)[C@H](C)NC(=O)[C@H](Cc1c[nH]c2ccccc12)NC(=O)[C@H](CCC(N)=O)NC(=O)[C@@H](Cc1ccccc1)NC(=O)COCCOCCNC(=O)CCC(C(=O)O)N1CCN(CC(=O)O)CCN(CC(=O)O)CCN(CC(=O)O)CC1)C(C)C)C(N)=O` (some centres unmarked) [lutetium-177 labelled] gave a tissue uptake of 0.6 ± 0.3 %ID/g (BALB/c nu/nu mice, stomach; intravenous, 500 pmol, 1 h, added: PA 300 µg).
`C#C[C@@]1(O)[C@@H](CO)O[C@@H](n2cc(I)c3c(N)ncnc32)[C@@H]1O` has a TGI of greater than 100 µM (OVCAR-4; SRB; NCI-60 screen).
`N#CC(=Cc1ccccc1Cl)C(=O)Nc1cccc2ncccc12` has a labelling of 10.5% (UCHL1; covalent, intact protein LC-MS; 12.5 µM).
With `CCCN1CCN(c2ccc3[nH]c(-c4ccc5[nH]c(-c6ccc(C(F)(F)F)cc6)nc5c4)nc3c2)CC1` the growth percent was -82.5% (OVCAR-4; SRB; 10 µM, 48 h).
The cell growth of `O=C(Nc1nnc2n3c(Cc4ccccc4)n[nH]c3nc(-c3ccc(Cl)cc3)c1-2)c1ccccc1` is reported as 96.9% (OVCAR-4; SRB; 10 µM, NCI60 single-dose screen; reference: untreated).
`Cn1cncc1C1=CN(c2ncnc3[nH]cnc23)CCS1` gave a TGI of greater than 200 µM (OVCAR-4; ovarian cancer).
`CCc1cccc(CC)c1NC(=O)C(C#N)=Cc1ccc(C#N)cc1` has a labelling of 40.2% (UCHL1; covalent, intact protein LC-MS; 12.5 µM).
`C#C[C@@]1(O)[C@@H](CO)O[C@@H](n2ccc3c(N)ncnc32)[C@@H]1O` gave a TGI of 7.79 µM (OVCAR-4; SRB; NCI-60 screen).
The growth percent of `CCCCN1CCN(c2ccc3[nH]c(-c4ccc5[nH]c(-c6ccc(OCC)cc6)nc5c4)nc3c2)CC1` is reported as 55.2% (OVCAR-4; SRB; 10 µM, 48 h).
`Cc1cc(C)n(-c2nc(-c3ccc(Cl)cc3)c3c(NC(=O)c4ccccc4)nnc-3[nH]2)n1` has a cell growth of 107% (OVCAR-4; SRB; 10 µM, NCI60 single-dose screen; reference: untreated).
For `O=C1NC(=NCc2cccs2)S/C1=C\c1ccc2ncccc2c1`, the IC50 was greater than 10 µM (OVCAR-4; MTS; NCI60 panel).

For quick reference, copied from above:
`N#CC(=Cc1ccccc1Cl)C(=O)Nc1cccc2ncccc12` has a labelling of 10.5% (UCHL1; covalent, intact protein LC-MS; 12.5 µM).
`CCCCN1CCN(c2ccc3[nH]c(-c4ccc5[nH]c(-c6ccc(OCC)c(OCC)c6)nc5c4)nc3c2)CC1` gave a growth percent of -77.5% (OVCAR-4; SRB; 10 µM, 48 h).
`N.N.O=C([O-])C1(C(=O)[O-])CCC1.[Pt+2]` gave an EC50 of 66.4 µM (OVCAR-4; cell viability).
